Measured values of several laboratories.
Parts stem from different laboratories: compare values within a part only. Changes are numbered by the printed parent chain.

Set 1
Target: JUN, bZIP domain (human)
Method: DHFR protein complementation
Matrix: yeast
Setting: single substitutions, most at no-binding floor
Relative to: wild-type JUN-FOS pair
Direction: higher = stronger binding
Starting sequence: JUN, bZIP domain (human); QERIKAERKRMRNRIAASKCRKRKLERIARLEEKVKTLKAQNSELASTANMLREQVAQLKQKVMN; partner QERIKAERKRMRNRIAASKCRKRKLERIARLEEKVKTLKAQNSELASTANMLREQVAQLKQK
Variant	binding fitness
A49M	-0.655 natural log
A46F	-0.5 natural log
A49R	-0.818 natural log
A40M	-0.355 natural log
K39S	-0.176 natural log
M51C	-0.343 natural log
A46G	-0.743 natural log
K36E	-0.235 natural log
A46M	-0.111 natural log
K39M	-0.152 natural log
K36Y	-0.689 natural log
T37G	-0.388 natural log
I28E	-0.391 natural log
M51T	-0.177 natural log
K39G	-0.583 natural log
E54T	-0.448 natural log
S43Q	-0.0562 natural log
Q55C	-0.599 natural log
S47K	0.0278 natural log
E33N	-0.359 natural log
T48A	-0.283 natural log
L38M	-0.935 natural log

Set 2
Target: Prothrombin, mature alpha-thrombin (F2, Homo sapiens, UniProt P00734)
Method: aptamer microarray, sandwich
Molecule type: DNA with 2'F-ANA
Matrix: in vitro
Concentration: 200 nM
Setting: whole 15-mer aptamer, many near background
Added: Cy3 exosite-II aptamer, 400 nM
Direction: higher = stronger binding
Strand: GGTTGGTGTGGTTGG
Modification	mean fluorescence intensity
2'F-ANA at 1 7 9 10 12	109 a.u.
2'F-ANA at 5 7 9 13	56.7 a.u.
2'F-ANA at 1 5 7 12 15	108 a.u.
2'F-ANA at 4 5 6 7 11 12 13 14	51.6 a.u.
2'F-ANA at 2 5 6 7 8 9 10 12 14 15	57.9 a.u.
2'F-ANA at 13 15	486 a.u.
2'F-ANA at 1 2 3 5 8 9 11 14	80.5 a.u.
2'F-ANA at 2 3 5 6 9 10 11 14 15	53.6 a.u.
2'F-ANA at 1 3 5 6 8 9 11 14 15	49.2 a.u.
2'F-ANA at 1 4 8 10 11 13 15	52.7 a.u.
2'F-ANA at 1 3 4 6 7 8 9 10 11 13 15	59.4 a.u.
2'F-ANA at 1 2 3 5 6 9 11 14	45.3 a.u.
2'F-ANA at 3 7 9	1100 a.u.
2'F-ANA at 5 6 10 15	54.4 a.u.
2'F-ANA at 6 9 10 14	106 a.u.
2'F-ANA at 4 6 8 12 14	113 a.u.
2'F-ANA at 2 3 4 5 7 11 12 14	51.3 a.u.
2'F-ANA at 1 3 4 5 6 7 9 12 13 14 15	51.1 a.u.
2'F-ANA at 1 5 9 11 12 13	69.5 a.u.
2'F-ANA at 2 5 8 9 11 13 14	43 a.u.
2'F-ANA at 1 3 4 9 10 12 15	84.4 a.u.
2'F-ANA at 1 3 8 13 15	477 a.u.
2'F-ANA at 1 9 10 11 12 13 14 15	49.8 a.u.
2'F-ANA at 2 6 8 9 11 14 15	106 a.u.
2'F-ANA at 2 5 9 12 13 14 15	67.5 a.u.

Set 3
Target: ABI1, truncated, D143A, DHFR fusion (Arabidopsis thaliana)
Method: DHFR PCA, deep sequencing
Matrix: yeast
Setting: methotrexate growth selection, single substitutions
Added: (+)-ABA 4.8 µM
Relative to: wild-type fitted maximum
Direction: higher = stronger binding
Starting sequence: PYL1, truncated, DHFR fusion (Arabidopsis thaliana); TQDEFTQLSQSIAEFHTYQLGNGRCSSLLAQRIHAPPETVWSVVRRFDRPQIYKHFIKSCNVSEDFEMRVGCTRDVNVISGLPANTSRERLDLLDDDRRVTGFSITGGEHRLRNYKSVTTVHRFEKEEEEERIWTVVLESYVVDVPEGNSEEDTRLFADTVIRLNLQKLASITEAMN; partner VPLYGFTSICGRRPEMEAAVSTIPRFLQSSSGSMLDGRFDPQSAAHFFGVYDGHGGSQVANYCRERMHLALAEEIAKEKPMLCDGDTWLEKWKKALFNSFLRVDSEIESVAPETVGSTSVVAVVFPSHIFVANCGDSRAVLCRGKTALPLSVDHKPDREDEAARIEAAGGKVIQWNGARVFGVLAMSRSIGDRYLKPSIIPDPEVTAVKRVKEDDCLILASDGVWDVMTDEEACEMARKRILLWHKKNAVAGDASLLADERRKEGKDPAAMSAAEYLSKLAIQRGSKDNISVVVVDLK
Variant	relative binding score [%]
Y53W	70.8
I172M	36.6
V121R	4.48
V40I	8.82
R46H	21.4
V143P	-6.54
E174L	9.92
T160Y	63.1
E127N	74.6
L28Q	-0.171
H122M	4.4
V40P	2.56
R155T	59.5
V70S	26.3
V161Y	8
Q10S	79.1
T106C	57.5
T106G	-5.58
R24Y	26.4
V136G	-2.92
R32C	55.3
E14D	55.8
E152L	51.2

Set 4
Target: Fragile X messenger ribonucleoprotein 1, C-terminal low-complexity region (Fmr1, Mus musculus, UniProt P35922)
Method: RNA Bind-n-Seq
Molecule type: RNA
Matrix: in vitro
Concentration: 200 nM
Setting: whole 134-nt RNA, ends assumed
Added: 150 mM LiCl
Relative to: input library
Direction: higher = stronger binding
All molecules: 7-deaza-guanosine replaces G
Shared flanks, not repeated: GGGAGUUCUACAGUCCGACGAUC … UGGAAUUCUCGGGUGUCAAGG
Strand	log2 enrichment
ACCAUGCAGGUGGGCAUCUUUGGGAAGUGGGGCAAGGGGGGGAUAGGGAGGGGGGUAACACUUUGGGAACAGUUGGUCCCAGGUCGUUUC	1.34
AGUCCUGUGCUACACAUCGUAUGUACCGAAUCGGGUUUUUUUGGGAGGGUUUUUGGGAAAGUAUUAUGUUACGCCGUUCGGAUCUGCACU	-1.45
GCAGGAAGUAAAAACAAAUGGAAAUGCUUCGGAUAGUGGCAGGGGUGGGGGUUGCUAAGGAAAUGGUGGGAUGGGAGUGGGUAAAGAGUU	1.39
AGUCCUGUGCUACACAUCGUAUGUACCGAAUCGGGGCCCCGGGGCCCCGGCCCCGGGAAAGUAUUAUGUUACGCCGUUCGGAUCUGCACU	-0.631
AGUCCUGUGCUACACAUCGUAUGUACCGAAUCAAACCCCCAAACCCCCAAAUUUAAAAAAGUAUUAUGUUACGCCGUUCGGAUCUGCACU	1.3
CAAGUCCUGUGCUACACAUCGUAUGUACCGAAUCGGGGCCCGGCCCGGGCCCGGGGAAAGUAUUAUGUUACGCCGUUCGGAUCUGCACUU	-2.21
GCAGGAAGUAAAAACAAAUGGAAAUGCUUCGGAUAGUGGCAGGGGUGAGGGUUGCUAAGGAAAGGGUGGGAUGGGAGUGGGUAAAGAGUU	1.41
CCUCAAGUCCUGUGCUACACAUCGUAUGUACCGAAUCGGUGGGUGGGUGGGGAAAGUAUUAUGUUACGCCGUUCGGAUCUGCACUUCCAG	-0.0698
UCCUGUGCUACACAUCGUAUGUACCGAAUCAAACCCCCAAACCCCCAAAUUUUUUUAAAAAAGUAUUAUGUUACGCCGUUCGGAUCUGCA	1.55
UCCUGUGCUACACAUCGUAUGUACCGAAUCGGGGUUUUUUGGUUUUUUGGUUUUUUGGGGAAAGUAUUAUGUUACGCCGUUCGGAUCUGC	-1.46
UGGCCCUGCUGGCAUGCGGGGAGGAAGAGGUGGCCUCAUGGAUCGUGGUGGUCCCGGUGGAAUGUUCAGAGGUGGCCGUGGUGGAGACAG	0.0625

Set 5
Target: CCND1, cyclin fold, Cln2 fusion (human)
Method: yeast growth competition, sequencing
Matrix: yeast
Setting: weak parent motif
Relative to: not given
Direction: higher = stronger binding
Starting sequence: BRCA2 docking peptide (human); PSIKRNLLNEFDR; partner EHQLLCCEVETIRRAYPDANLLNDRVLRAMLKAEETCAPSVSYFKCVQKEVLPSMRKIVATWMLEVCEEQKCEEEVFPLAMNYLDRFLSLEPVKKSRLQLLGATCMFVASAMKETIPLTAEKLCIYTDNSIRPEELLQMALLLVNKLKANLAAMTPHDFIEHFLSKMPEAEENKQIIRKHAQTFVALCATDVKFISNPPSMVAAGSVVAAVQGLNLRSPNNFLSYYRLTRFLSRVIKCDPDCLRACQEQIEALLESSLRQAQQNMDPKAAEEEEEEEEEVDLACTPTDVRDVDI
Variant	normalised enrichment score
N9K	0.613
I3W	-0.147
S2Q	0.644
L7N	-0.989
D12L	-0.0839
N9G	0.413
P1T	0.46
I3V	0.0198
P1W	1.15
S2L	0.67
L7D	0.107
F11A	0.711
R13D	1.19
L8V	0.579
L7K	0.041
P1H	0.831
L7M	0.0459

Excerpt of the above (set 1):
Variant	binding fitness
A46G	-0.743 natural log
A49M	-0.655 natural log
K39G	-0.583 natural log
K39M	-0.152 natural log
Q55C	-0.599 natural log
L38M	-0.935 natural log
I28E	-0.391 natural log
K39S	-0.176 natural log
T48A	-0.283 natural log
M51C	-0.343 natural log
S47K	0.0278 natural log
E33N	-0.359 natural log
A49R	-0.818 natural log
S43Q	-0.0562 natural log
A40M	-0.355 natural log
K36Y	-0.689 natural log
